Assay results collected from several papers.
Parts stem from different laboratories: compare values within a part only.
UniProt P49137, sequence (whole entry, looked up): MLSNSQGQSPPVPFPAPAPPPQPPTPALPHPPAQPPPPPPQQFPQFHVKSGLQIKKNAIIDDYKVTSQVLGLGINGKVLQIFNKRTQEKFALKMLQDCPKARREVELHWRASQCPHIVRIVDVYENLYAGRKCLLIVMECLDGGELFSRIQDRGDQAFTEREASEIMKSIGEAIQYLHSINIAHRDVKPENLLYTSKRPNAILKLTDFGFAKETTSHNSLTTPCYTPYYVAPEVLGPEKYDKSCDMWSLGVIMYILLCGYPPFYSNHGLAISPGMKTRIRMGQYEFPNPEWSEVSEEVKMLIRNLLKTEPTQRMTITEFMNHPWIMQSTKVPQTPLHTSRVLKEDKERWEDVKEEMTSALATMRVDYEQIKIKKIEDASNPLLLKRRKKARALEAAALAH
UniProt P51812, sequence (whole entry, looked up): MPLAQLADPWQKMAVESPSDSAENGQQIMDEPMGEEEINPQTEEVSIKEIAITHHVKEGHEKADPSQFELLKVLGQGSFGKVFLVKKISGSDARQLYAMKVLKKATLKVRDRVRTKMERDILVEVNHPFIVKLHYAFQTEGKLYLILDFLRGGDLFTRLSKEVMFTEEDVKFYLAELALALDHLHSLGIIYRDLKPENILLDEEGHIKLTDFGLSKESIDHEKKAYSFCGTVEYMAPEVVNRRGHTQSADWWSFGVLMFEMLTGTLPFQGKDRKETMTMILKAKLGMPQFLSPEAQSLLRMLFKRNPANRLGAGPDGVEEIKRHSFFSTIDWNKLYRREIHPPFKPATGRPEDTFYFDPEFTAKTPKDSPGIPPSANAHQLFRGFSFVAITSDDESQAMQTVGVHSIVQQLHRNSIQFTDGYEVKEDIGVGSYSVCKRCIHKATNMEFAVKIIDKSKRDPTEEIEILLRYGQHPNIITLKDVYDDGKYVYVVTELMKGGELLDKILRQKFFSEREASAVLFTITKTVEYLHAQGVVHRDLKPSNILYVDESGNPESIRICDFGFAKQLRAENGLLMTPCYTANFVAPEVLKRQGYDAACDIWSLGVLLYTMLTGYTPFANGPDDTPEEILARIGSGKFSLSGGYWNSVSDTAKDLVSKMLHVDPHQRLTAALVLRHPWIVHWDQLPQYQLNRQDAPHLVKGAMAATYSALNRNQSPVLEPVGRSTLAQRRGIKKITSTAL
UniProt Q13882, sequence (whole entry, looked up): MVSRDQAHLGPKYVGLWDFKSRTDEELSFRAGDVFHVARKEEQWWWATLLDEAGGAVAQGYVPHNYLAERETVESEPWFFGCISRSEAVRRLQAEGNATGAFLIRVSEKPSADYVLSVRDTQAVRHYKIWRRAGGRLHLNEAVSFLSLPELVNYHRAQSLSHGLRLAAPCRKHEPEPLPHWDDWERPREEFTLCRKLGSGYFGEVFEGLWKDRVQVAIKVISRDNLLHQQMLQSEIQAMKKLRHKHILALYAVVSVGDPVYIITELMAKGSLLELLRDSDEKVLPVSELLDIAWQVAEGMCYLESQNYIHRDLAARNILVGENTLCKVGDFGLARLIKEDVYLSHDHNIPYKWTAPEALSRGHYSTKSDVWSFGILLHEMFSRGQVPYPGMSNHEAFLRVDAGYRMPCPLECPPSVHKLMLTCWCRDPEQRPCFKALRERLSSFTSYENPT
UniProt Q96GD4, sequence (whole entry, looked up): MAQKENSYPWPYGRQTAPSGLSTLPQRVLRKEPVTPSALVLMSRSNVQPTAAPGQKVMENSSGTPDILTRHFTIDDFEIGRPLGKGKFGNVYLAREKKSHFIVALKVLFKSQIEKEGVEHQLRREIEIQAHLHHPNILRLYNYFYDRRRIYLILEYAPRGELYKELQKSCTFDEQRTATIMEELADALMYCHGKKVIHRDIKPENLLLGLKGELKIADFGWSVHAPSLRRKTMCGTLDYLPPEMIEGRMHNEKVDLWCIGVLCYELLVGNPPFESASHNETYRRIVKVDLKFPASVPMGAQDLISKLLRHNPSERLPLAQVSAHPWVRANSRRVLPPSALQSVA
UniProt Q9P289, sequence (whole entry, looked up): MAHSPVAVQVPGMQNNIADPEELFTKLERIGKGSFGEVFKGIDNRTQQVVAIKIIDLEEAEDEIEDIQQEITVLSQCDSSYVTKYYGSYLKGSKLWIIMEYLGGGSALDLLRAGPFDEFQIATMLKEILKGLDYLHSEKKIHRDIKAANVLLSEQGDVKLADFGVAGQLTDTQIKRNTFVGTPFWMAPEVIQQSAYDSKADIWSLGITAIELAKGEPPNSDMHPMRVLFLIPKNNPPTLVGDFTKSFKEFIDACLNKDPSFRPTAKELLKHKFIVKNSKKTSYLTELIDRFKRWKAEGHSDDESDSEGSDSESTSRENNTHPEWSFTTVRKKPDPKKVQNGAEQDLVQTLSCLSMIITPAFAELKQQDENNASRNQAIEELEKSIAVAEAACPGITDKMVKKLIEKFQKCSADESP
UniProt P22455, sequence (whole entry, looked up): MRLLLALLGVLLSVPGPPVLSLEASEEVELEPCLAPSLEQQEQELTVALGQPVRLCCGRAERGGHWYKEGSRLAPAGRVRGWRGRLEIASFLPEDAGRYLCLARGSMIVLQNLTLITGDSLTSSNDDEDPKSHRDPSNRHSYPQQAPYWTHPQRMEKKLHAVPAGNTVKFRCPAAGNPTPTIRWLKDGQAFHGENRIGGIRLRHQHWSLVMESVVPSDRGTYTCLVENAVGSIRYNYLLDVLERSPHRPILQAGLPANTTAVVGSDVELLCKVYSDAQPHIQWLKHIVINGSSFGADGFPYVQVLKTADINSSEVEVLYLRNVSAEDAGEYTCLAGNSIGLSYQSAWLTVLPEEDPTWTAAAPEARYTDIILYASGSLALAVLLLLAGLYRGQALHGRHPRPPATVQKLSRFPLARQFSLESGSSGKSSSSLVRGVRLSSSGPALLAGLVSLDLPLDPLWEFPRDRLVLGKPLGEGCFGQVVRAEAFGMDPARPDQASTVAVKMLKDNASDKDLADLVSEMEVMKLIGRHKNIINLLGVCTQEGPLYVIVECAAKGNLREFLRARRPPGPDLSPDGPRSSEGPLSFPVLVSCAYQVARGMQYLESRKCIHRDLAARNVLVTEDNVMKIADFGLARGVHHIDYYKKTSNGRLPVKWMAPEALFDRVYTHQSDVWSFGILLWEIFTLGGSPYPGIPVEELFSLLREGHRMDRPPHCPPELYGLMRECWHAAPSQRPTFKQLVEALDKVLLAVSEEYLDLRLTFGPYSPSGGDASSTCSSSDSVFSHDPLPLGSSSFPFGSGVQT
UniProt P10721, sequence (whole entry, unmodified, looked up): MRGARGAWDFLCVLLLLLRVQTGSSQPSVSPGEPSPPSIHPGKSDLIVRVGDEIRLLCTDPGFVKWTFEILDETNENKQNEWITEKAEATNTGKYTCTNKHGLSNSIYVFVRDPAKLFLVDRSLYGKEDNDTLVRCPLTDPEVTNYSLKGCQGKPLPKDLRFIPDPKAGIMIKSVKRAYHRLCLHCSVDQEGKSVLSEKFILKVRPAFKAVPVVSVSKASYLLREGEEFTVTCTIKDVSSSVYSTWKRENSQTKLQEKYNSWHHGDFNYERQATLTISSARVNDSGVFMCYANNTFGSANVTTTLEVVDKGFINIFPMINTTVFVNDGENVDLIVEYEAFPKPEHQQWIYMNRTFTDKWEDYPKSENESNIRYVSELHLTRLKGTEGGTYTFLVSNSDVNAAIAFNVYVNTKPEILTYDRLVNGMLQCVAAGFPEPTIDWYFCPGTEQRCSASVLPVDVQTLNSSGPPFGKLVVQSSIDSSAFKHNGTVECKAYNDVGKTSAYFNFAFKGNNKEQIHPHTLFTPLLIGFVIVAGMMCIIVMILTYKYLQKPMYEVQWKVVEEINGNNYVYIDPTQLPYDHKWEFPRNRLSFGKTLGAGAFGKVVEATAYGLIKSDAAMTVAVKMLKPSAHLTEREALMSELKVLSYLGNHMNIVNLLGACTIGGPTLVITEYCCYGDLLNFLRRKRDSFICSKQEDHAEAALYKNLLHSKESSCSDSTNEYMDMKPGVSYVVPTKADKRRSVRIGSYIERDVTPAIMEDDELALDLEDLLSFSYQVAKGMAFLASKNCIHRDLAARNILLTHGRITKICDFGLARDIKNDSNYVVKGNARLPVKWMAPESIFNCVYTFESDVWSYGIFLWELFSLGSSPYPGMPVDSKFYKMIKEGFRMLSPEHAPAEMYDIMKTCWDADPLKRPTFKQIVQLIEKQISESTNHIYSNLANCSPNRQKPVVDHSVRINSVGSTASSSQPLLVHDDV

Sample 1
SMILES: O=C(N[C@H]1CCCCC/C=C\C2C[C@@]2(C(=O)O)NC(=O)[C@@H]2C[C@@H](Oc3ccncc3)CN2C1=O)OC1CCCC1 (stereo partly shown)
Method: competition with immobilised ligand
Concentration: 1 µM
The remaining binding was 100% (Ribosomal protein S6 kinase alpha-3, N-terminal kinase domain (RPS6KA3, Homo sapiens, UniProt P51812); binding).
For MAP kinase-activated protein kinase 2 (MAPKAPK2, Homo sapiens, UniProt P49137); binding: remaining binding read 89%.
It gave 100% for remaining binding (STE20/SPS1-related proline-alanine-rich protein kinase (STK39, Homo sapiens, UniProt Q9UEW8); binding).
The remaining binding was 97% (Serine/threonine-protein kinase 26 (STK26, Homo sapiens, UniProt Q9P289); binding).
The remaining binding was 100% (Protein-tyrosine kinase 6 (PTK6, Homo sapiens, UniProt Q13882); binding).
It gave 89% for remaining binding (Aurora kinase B (AURKB, Homo sapiens, UniProt Q96GD4); binding).
For Fibroblast growth factor receptor 4 (FGFR4, Homo sapiens, UniProt P22455); cell-free assay: remaining binding read 100%.
It gave 84% for remaining binding (Receptor tyrosine-protein kinase erbB-3 (ERBB3, Homo sapiens, UniProt P21860); binding).
For Phosphatidylinositol 4,5-bisphosphate 3-kinase catalytic subunit alpha isoform (PIK3CA, Homo sapiens, UniProt P42336, E545A); binding: remaining binding read 100%.
Ephrin type-A receptor 5 (EPHA5, Homo sapiens, UniProt P54756); cell-free assay — remaining binding: 100%.
For Serine/threonine-protein kinase N1 (PKN1, Homo sapiens, UniProt Q16512); binding: remaining binding read 100%.
Mast/stem cell growth factor receptor Kit (KIT, Homo sapiens, UniProt P10721, T670I/V559D); binding — remaining binding: 100%.

Sample 2
Target: Ras GTPase-activating protein-binding protein 1, C-terminal RGG region (G3BP1, Homo sapiens, UniProt Q13283)
UniProt Q13283, sequence (whole entry, looked up): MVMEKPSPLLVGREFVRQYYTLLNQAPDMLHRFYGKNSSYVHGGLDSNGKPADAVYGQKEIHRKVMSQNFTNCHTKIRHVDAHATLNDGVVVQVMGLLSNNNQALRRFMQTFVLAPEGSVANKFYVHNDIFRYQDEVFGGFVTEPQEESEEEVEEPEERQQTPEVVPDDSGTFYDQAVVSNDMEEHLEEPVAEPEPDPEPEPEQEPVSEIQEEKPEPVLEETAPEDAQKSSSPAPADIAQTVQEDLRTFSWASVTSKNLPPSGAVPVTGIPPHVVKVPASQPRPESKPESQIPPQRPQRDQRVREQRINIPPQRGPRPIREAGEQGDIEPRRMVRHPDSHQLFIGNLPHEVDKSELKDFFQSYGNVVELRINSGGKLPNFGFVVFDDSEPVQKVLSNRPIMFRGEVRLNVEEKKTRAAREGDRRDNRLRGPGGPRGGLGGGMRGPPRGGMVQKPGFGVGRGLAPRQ
Method: RNA Bind-n-Seq
Molecule type: RNA
Medium: in vitro
Concentration: 1 µM
Notes: whole 134-nt RNA, ends assumed
Together with: 150 mM KCl
Reference: input library
Direction: higher = stronger binding
With `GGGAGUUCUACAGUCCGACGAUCCCUCAAGUCCUGUGCUACACAUCGUAUGUACCGAAUCGGAGGUGGUUUUUGGAAAGUAUUAUGUUACGCCGUUCGGAUCUGCACUUCCAGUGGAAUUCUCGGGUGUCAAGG` the log2 enrichment was -0.546.
With `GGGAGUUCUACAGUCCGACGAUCCAAGUCCUGUGCUACACAUCGUAUGUACCGAAUCGGUUUGGUUUUUUUGGUUUGGAAAGUAUUAUGUUACGCCGUUCGGAUCUGCACUUCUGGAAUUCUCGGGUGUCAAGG` the log2 enrichment was -1.62.
For `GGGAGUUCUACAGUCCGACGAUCCUCAAGUCCUGUGCUACACAUCGUAUGUACCGAAUCGGAGGAAAGGUUUUUGGAAAGUAUUAUGUUACGCCGUUCGGAUCUGCACUUCCAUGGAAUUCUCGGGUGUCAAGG`, the log2 enrichment was -1.29.
With `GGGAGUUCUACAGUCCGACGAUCCAAAAUACCAAGGGAUUUAUAUGAGGAUGAGUUGGUGCCCCUUUUUGAGAAGGCCGGACCCAUUUGGGAUCUACGUCUUAUGAUGGAUCCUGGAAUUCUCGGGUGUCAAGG` the log2 enrichment was -1.27.
The log2 enrichment of `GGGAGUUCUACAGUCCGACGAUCUGGUAGGUGGAUUUUGUUUAUUUUUUUAGCUCAUUUCCAGGGGUGGGAAUUUUUUUUUAAUAUGUGUCAUGAAUAAAGUUGUUUUUGAAAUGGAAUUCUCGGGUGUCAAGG` is reported as 4.2.
For `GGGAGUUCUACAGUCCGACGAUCUCAAGUCCUGUGCUACACAUCGUAUGUACCGAAUCGGUUUUUGGUUUUUGGUGGAAAGUAUUAUGUUACGCCGUUCGGAUCUGCACUUCCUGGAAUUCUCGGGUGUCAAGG`, the log2 enrichment was -1.12.
For `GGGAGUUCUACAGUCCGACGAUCGCAGGAAGUAAAAACAAAUGGAAAUGCUUCGGAUAGUGGCAGGGGUGGGGGUUGCUAAGGAAAGGGUGGGGUGGGAGUGGGUAAAGAGUUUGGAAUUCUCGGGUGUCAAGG`, the log2 enrichment was 1.98.
The log2 enrichment of `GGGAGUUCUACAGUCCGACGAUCUGGGAGGUGGAUUUUGUUUAUUUUUUUAGCUCAUUUCCAGGGGUGGGAAUUUUUUUUUAAUAUGUGUCAUGAAUAAAGUUGUUCUUGAAAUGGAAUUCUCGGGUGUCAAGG` is reported as 3.96.

Sample 3
Target: RNA binding protein fox-1 homolog 2, RRM domain, GST-SBP tag (RBFOX2, Homo sapiens, UniProt O43251-10, residues 100-194)
Method: RNA Bind-n-Seq
Molecule type: RNA
Medium: in vitro
Concentration: 365 nM
Notes: natural RNA segment, single round, ends assumed
Reference: no-protein control
Direction: higher = stronger binding
Construct (chain): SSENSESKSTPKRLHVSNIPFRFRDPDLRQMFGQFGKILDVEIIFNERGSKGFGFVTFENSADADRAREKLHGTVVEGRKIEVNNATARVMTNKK
Under “RBNS enrichment (R)”, `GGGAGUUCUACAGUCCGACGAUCGCCCACAUGGGAAAGAGAUAAAAUGUACAAAUUAGAAAAAUGUGGAUAAACAGUCAAACCUUUAUCCUCUAGAAUUUUGGCAAUGUUGACUAAGAAACAGAGUCCAAGCAUGGAAUUCUCGGGUGCCAA` is recorded as 1.37.
`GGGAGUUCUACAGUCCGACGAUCUCUGCAUGAGUUCAAACCUGUCGUUCCUCCUUACAGUAGGAAUGGCACAUAUUGAGGCGAUCAUAAGUCUUAACUUUUCAAAAUUUUAAAUAAAAGACUUUGCACAUUGAUGGAAUUCUCGGGUGCCAA` — result for “RBNS enrichment (R)”: 17.7.
`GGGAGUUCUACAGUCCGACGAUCCUCCUCCCCCCUCCUCUGAAACAGCUGCCUUAGCUUCAGGAACCUCGAGUACUGUGGGCAAUUUAGAAAAAGAACAUGCAGUUUGAAAUUCUGAAUUUGCAAAGUACUGUUGGAAUUCUCGGGUGCCAA`: “RBNS enrichment (R)” 0.478.
`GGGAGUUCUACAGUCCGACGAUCCAUGUCUUGCUUCUCCAGUGUGUGGAAGGCACCGGGCAGUUUGCAGAGAUAAGCAAAACACAGUUCCUCUCGUGCAGAAGGUUAGAAUCUAUUUUUUUUUUUGACAGAGUUGGAAUUCUCGGGUGCCAA` — result for “RBNS enrichment (R)”: 0.859.
`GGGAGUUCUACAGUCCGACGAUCUUUAGAGUUUUUUUAAUUAACACUUGUGUUGCUAAAUUCUAUUUAUGUAAGUCUGCUAAAGUUUUUUAGCCCACUUAAAACUUAAGACAACCAUUUAAAAUAAUGGAUGGUGGAAUUCUCGGGUGCCAA` — result for “RBNS enrichment (R)”: 0.325.
`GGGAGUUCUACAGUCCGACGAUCUGUUGCUUCCUGUUUUAGUGUCUGAACUCUGACAGGGUGACAGGGACCUUGCUGGUGUAGUCUUUUUAUAGGUUUUAUAAACCACAUGAGCCUAUAUCAGUCAUUUUAGUUGGAAUUCUCGGGUGCCAA` — result for “RBNS enrichment (R)”: 0.365.
`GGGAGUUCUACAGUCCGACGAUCCUCUAGAUUUCCAAUGACGAUACCCUGGCUGAAUAGGCUUUUCUCUUCCUUGGGCCUUUACUUCUUUUCUUCCUCCUUGGUUUCAGUUCCCAUGUGCUAUCAUUAUAAUCUGGAAUUCUCGGGUGCCAA`: “RBNS enrichment (R)” 0.622.
For `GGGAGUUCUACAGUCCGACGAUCCACAGCAAGUAGGCCUCAAAGUAAUCUUCCUCUUUCCCAUCAAUCAUCUUCUGCCAAGCAUUCAGGCAGAGCAGCUGUUAACUGUGAUUCAAAGUCAGAAAAACAUCAAGUGGAAUUCUCGGGUGCCAA`, “RBNS enrichment (R)” read 0.984.

Other studies, line by line
The remaining compound of `O=C(c1nc2ncccn2n1)N1CCCn2cc(-c3ccccc3)nc21` is reported as 89.7% (human, microsomes or S9; 2 µM, 0.5 h).
`CC(C)n1cnc(-c2ccc(F)cc2)c1-c1ncc(C(=O)Nc2ccc(N3CCN(C)CC3)cc2)[nH]1` — result for “patients with decreased appetite”: 0% (phase 2a trial; idiopathic pulmonary fibrosis patients; 30 mg once daily, adverse event grade 2).
With `Cn1cc(-c2noc(C(O)C3CCCCCCC3)n2)nn1` (stereo not shown) the remaining compound was over 100% (human, microsomes or S9; 2 µM, 0.5 h).
